Measurements from different studies.
A part holds a random share of what one study measured.

Set 1 — method: protein-binding microarray; molecule type: double-stranded DNA, one strand shown; matrix: in vitro; concentration: 250 nM; setting: 60-bp whole probe; with: salmon DNA 0.4 mg/ml; relative to: random background probes; direction: higher = stronger binding; constant ends, left off below: GCCTAGCAC … GTCTTGATTCGCTTGACGCTGCTG
Target: Interferon regulatory factor 5, full length, phosphomimetic (IRF5, Homo sapiens, UniProt Q13568-2, residues 1-514, K96S/S451D/S453D/S456D/S462D)
Oligonucleotide | log fluorescence
GACGAACTGGGTCTCGAGACGTGCTAG | -0.466 z-score
GACGGTATCGACACCGGGGACGTGCTA | 1.53 z-score
TGAGGTATCGACTTTCGGTTAGTGCTA | 9.88 z-score
TCACCTTCACCTCTCTGACTGTGCTAG | 0.579 z-score
TTGGGTTTCCTTTTCCTTTAGTGCTAG | 1.56 z-score
TTAGGACTGGTTTTCGGTTAGTGCTAG | 6.64 z-score
GCCGGTATCCTACTGCTGACGTGCTAG | -0.218 z-score
GAAGATATCGGGTATCGAGACGTGCTA | 2.47 z-score
GACGAACTGGGGTCTGGAGACGTGCTA | -0.419 z-score
TTAGGACTGGGGACTGGTTTAGTGCTA | -0.397 z-score
TTAGGCATCCTTTTCCTTTAGTGCTAG | 0.185 z-score
GATGGTTTCCTTATCCTGACGTGCTAG | 1.1 z-score
GACGGTATCGGACTGGGTACGTGCTAG | 0.84 z-score
TCATTTCTGGTTCCCATACTGTGCTAG | 2.09 z-score
TTAGATCTCAGTCTCGATTCGTGCTAG | 0.68 z-score
TACGGACTGGGGACTGGGGACGTGCTA | -0.648 z-score
TTAGGTCTCGGACTGGATTAGTGCTAG | -0.322 z-score
TTAGATCTCAGTTTCGTTTAGTGCTAG | 7.66 z-score
GACGATTTCACTATCGAGACGTGCTAG | 5.36 z-score
TTAGATTTCAGACAGGATTAGTGCTAG | 0.49 z-score
TTAGGACTGCTGCTGCTTTAGTGCTAG | -0.423 z-score
TCAGAATTGAAAATTAGTACTGTGCTA | 0.481 z-score
GACGAACTGGGATATCGAGACGTGCTA | -0.0218 z-score
TTTCTTTTTGCACTCTCTACGTGCTAG | 5.52 z-score
GACGGTTCCCTTTGCCTGACGTGCTAG | 0.0874 z-score

Set 2 — method: RNA Bind-n-Seq; molecule type: RNA; matrix: in vitro; concentration: 365 nM; relative to: no-protein control; direction: higher = stronger binding
Target: RNA binding protein fox-1 homolog 2, RRM domain, GST-SBP tag (RBFOX2, Homo sapiens, UniProt O43251-10, residues 100-194)
Setting: natural RNA segment, single round, ends assumed
Residues (chain): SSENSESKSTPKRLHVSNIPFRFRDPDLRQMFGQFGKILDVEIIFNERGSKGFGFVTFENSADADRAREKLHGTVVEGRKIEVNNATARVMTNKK
Oligonucleotide | RBNS enrichment (R)
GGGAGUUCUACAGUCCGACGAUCGUCUCAUUAAAAAUUAGUUUCCAGUUAGGCAGAUGAAUAACACUAUUAAAAAUGCACCCAGUUUUGUAGUCACUUGACUUUUUUUUUUUAUUUAAAUGAAAUUUAAUUUGUGGAAUUCUCGGGUGCCAA | 0.991
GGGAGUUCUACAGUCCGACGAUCAGCUUGGGAGAAAGGAACUGGAAGAACAUGAAAAAGCAGGGGCAUGUGUAGACAUUAGUGAAAAUUAACAAUGCACGUUAUUUGCAAAUGUCAGCAAUUAUCUGUACAUGUGGAAUUCUCGGGUGCCAA | 12.4
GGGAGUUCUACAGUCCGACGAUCCUCUCUCAUGUGGUCUCUUAAUCCAGUAAUUGUAUUACUGCCAUUAAAGGAUGCAGUUAUUUUAAACAGUCUGUGAGUCUAGUCUCAUCUCUGCCCUGUCAGGGAACAAAUGGAAUUCUCGGGUGCCAA | 0.239
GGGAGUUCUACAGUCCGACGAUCGCGGCUUCUGAAAGUGCCUUGGUGUGAGAAGGAGGAAGGGGCCGCUUGGAGAGCUGGGCUCUCGCAUGUCAUGUUUAGCCCACUGAGAAUAUACCCUCAGGUGACUCCCUUGGAAUUCUCGGGUGCCAA | 8.49
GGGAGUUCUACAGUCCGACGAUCAAGGCUUCGCUUACUAAGUUUCUGAAUGGCCGAGUAGCCACACCCUAGAGCUAGCAGUCCUCAUCCAGGCAACCGAGGGCAGUGGUUUUGUUUGUGUUCUUGGCUGUUCCUGGAAUUCUCGGGUGCCAA | 1.3
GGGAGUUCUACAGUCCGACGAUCACCCAUCAUACUACUAUACUUCUGGGUUGAACAGAAUUAUUUAUGCAGAAUAAUUCAAUUGAAUAUCCAUCACUUAAAUACAGUGACAGGACAGCAACUUCAGGGAUCUGUGGAAUUCUCGGGUGCCAA | 0.315
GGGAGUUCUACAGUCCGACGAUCGCUCUUCAGUGAGCCUAAGUCUUGGGAACUCAGCAGGCGGCACCUUCUCACACAGCAAGUCCGAGCUGUGAACUGUAGUUCGUGAGAGAAAUCAGCCUGAGGCUGUCUUCUGGAAUUCUCGGGUGCCAA | 0.277
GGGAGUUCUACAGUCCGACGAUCUUACCUUGCAGUGGUGUUGACUCUUUUAUAGACUGUCUUUAGCAUUGUGCAAUUUAAGAAUAACUUAAGGAUCUUGGACUUUACAUAAAUCUUGAAUUGUAUAAACUCUAUGGAAUUCUCGGGUGCCAA | 0.376
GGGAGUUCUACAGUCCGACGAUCGGAGCUGCCCCAGCUGAAGGGGGCUGUGUAUGUGUCUGAGGAGCUUAGUAAGACUCUGGUUCACACCGUGAGUGUCGCGGUCAUUGAUGGGACCAGGGCAGUCACCAGUGUGGAAUUCUCGGGUGCCAA | 0.568

Set 3 — method: protein binding microarray; molecule type: double-stranded DNA, one strand shown; matrix: in vitro; concentration: not given; relative to: not given; direction: higher = stronger binding
Target: Histone acetyltransferase KAT6A, winged helix 2, GST fusion (KAT6A, Homo sapiens, UniProt Q92794, residues 85-181)
Setting: 8-mer, flanks averaged, mean of 2 arrays, mostly near background
Target sequence (chain): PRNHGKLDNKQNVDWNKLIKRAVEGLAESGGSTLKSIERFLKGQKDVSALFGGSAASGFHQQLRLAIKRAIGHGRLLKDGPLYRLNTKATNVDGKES
Oligonucleotide | E-score
AATTTTGG | 0.106
AACCCAGA | 0.0549
ACATTTAG | -0.168
TGGATTAA | -0.145
AGTACGCG | 0.036
ACTAATAA | 0.105
CACTACGC | 0.0196
CATTCTAA | 0.051
ACGCTCAC | -0.0871
AGCACGCC | 0.0967
GGATTCTA | 0.08
CTATGTCA | 0.121
TGGCCAAA | -0.0403
CGAGGTAC | 0.0665
GACGAATC | 0.104
GTATTGCA | -0.0921
GGTGTCCA | 0.0303
ACTAGACA | 0.0221
GGGGTGAC | 0.0662
AATCACGG | 0.116
GAACGACC | -0.116
CGGCACGC | 0.146

Set 4 — method: RNA Bind-n-Seq; molecule type: RNA; matrix: in vitro; concentration: 100 nM; relative to: input RNA pool; direction: higher = stronger binding
Target: RING finger protein unkempt homolog, zinc fingers 1-6, SBP tag (UNK, Homo sapiens, UniProt Q9C0B0, residues 30-357)
Chain of UniProt Q9C0B0 (30-357, looked up): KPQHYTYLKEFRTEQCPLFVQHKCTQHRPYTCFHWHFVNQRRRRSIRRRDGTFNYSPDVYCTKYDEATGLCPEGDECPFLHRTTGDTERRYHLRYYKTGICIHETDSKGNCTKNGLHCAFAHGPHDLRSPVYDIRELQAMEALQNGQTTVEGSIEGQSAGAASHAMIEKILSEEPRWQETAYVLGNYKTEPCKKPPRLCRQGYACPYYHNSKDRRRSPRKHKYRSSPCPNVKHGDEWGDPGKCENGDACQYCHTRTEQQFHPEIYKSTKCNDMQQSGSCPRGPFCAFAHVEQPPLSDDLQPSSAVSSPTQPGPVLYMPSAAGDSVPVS
Setting: RNA with constant flanks, vertebrate orthologous sites, ends assumed
Oligonucleotide | bound/input enrichment [ratio]
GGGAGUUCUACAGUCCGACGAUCAAAAUGUGUUUCCAUUUGUUUAGGAUAGUUUUGUGCUAAGGUUGUGUUAGACUUAAAAAUUAGUUAAUUUCUUUGUUGUGUUGCUUUUGUUAUUGAAAAUAAAUGGAACUUUGUAUUUGACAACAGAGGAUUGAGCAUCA | 1.37
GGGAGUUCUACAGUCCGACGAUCCUCUACGGGCCUCGCAGAGUUGAAAUAAUGGAAGAGGAAAGUGAAUAGUAAUCUUCAUUUUAGUAUUUAUGCUUAGGUGUGAAAUAAAUGUUAUUCGUUGAUCAUUUCUAUAAUCCAGAGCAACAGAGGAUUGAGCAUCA | 0.568
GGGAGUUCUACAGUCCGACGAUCAAAUUUAUUUCAUGCCCUGGACUCCAUAUCGUACUGAUACUUUAAUAGAAUAUGCUUCUUUAGAAGAUUUCCAAAACAGUCGCCAAACAACAACAUACAAACUUCCAAAUCGCGUAGAUGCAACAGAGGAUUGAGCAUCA | 1.33
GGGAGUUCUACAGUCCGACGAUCGUUAGGUCAUGACCCUUAUAGGCUAGGUCAUGAUGCUUACAGGUUAGGGCAAGACCCCUAUAGAUUAGGCCAUGAUCCCUACAGACUAACUCCUGAUCCCUAUAGGAUGUCACCUAGACCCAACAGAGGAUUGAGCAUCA | 0.622
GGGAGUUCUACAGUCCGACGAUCACCCUCAACUAGCUUUGAACAAUGGUACUAUUGAGCUGGUUCAUAAGUUGGGAUUGAGAAUUCAGGUCUUUGAUUUCUCUACUGCUGCUGACUGGAGAGACAAAUUUAUAACCAGGAACACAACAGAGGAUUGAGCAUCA | 0.534
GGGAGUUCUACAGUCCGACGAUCCUCUCUUAGCGAUAGUAUUCCAUCUGUAGCAGAUUCGCACUCGAGUCAUUUUUCUGAGUUUAGUUGCUCAGAUAUGGAAAGUAUGAAAACUUCCUGUAGCCAUGGUUCCAGUGACUAUCACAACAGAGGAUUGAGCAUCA | 0.517
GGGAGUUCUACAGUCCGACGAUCGUGCAAGGAGAUUAUUCCAACUAGUGAAUUUAUUAACAGUAAGUUGACAGCAAAAGCAAAUAGGCAGCUUCAAGAUCCUUUAGUAAUCAUGACAGGAAACAUCCCAACAUGGCUUACUGACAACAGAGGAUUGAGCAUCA | 0.79
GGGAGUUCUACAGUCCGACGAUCUUUUGUCUGCCUCAUAAAAUUUACACAAUAGACCAUUCGUCAUCCUUACUGUCCCACAAAUAGGUUUUGUUUUUUUUUUUUUAAUUUUAUUUUUUGUUUUUGUUUUGUUUACAAUUACGGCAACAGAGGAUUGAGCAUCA | 10.2

Excerpt of the above (set 4):
Oligonucleotide | bound/input enrichment [ratio]
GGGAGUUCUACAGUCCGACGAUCGUUAGGUCAUGACCCUUAUAGGCUAGGUCAUGAUGCUUACAGGUUAGGGCAAGACCCCUAUAGAUUAGGCCAUGAUCCCUACAGACUAACUCCUGAUCCCUAUAGGAUGUCACCUAGACCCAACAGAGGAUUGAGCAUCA | 0.622
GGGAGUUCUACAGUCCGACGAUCACCCUCAACUAGCUUUGAACAAUGGUACUAUUGAGCUGGUUCAUAAGUUGGGAUUGAGAAUUCAGGUCUUUGAUUUCUCUACUGCUGCUGACUGGAGAGACAAAUUUAUAACCAGGAACACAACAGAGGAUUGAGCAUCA | 0.534
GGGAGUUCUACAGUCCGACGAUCCUCUCUUAGCGAUAGUAUUCCAUCUGUAGCAGAUUCGCACUCGAGUCAUUUUUCUGAGUUUAGUUGCUCAGAUAUGGAAAGUAUGAAAACUUCCUGUAGCCAUGGUUCCAGUGACUAUCACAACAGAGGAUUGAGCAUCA | 0.517
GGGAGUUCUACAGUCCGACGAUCGUGCAAGGAGAUUAUUCCAACUAGUGAAUUUAUUAACAGUAAGUUGACAGCAAAAGCAAAUAGGCAGCUUCAAGAUCCUUUAGUAAUCAUGACAGGAAACAUCCCAACAUGGCUUACUGACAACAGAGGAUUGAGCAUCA | 0.79
